Measurements pooled from the literature.
Parts stem from different laboratories: compare values within a part only.
Chain of UniProt P21127 (whole entry, looked up): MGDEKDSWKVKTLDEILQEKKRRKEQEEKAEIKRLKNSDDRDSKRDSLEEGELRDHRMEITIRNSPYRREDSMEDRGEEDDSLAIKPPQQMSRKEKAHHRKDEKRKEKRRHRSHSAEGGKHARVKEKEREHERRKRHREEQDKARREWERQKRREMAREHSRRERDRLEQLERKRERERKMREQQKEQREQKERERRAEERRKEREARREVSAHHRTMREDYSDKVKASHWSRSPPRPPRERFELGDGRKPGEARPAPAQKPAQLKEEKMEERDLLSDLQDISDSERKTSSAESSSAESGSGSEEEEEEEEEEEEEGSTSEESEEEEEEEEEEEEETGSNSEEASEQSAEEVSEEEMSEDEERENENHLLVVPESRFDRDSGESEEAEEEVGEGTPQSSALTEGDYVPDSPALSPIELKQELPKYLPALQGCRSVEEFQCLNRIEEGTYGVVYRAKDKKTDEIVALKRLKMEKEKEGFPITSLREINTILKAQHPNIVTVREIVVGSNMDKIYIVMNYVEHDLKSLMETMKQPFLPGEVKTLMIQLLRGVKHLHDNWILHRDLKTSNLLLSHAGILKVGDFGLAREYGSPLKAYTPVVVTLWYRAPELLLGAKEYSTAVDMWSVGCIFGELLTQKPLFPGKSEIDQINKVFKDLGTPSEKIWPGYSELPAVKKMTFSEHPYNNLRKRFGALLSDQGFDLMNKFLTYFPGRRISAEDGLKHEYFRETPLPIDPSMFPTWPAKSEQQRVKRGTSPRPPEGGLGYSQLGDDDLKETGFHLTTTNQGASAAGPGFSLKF

Series 1
Structure (SMILES): C=CCc1ccc(O)c(-c2ccc(O)c(CC=C)c2)c1
Observed: chloride current
Technique: whole-cell voltage clamp
Measurement: IC50
ANO1 del476-501/F646A: Anoctamin-1 (ANO1, Homo sapiens, UniProt Q5XXA6, del476-501/F646A)
Chain of UniProt Q5XXA6 (whole entry, unmodified, looked up): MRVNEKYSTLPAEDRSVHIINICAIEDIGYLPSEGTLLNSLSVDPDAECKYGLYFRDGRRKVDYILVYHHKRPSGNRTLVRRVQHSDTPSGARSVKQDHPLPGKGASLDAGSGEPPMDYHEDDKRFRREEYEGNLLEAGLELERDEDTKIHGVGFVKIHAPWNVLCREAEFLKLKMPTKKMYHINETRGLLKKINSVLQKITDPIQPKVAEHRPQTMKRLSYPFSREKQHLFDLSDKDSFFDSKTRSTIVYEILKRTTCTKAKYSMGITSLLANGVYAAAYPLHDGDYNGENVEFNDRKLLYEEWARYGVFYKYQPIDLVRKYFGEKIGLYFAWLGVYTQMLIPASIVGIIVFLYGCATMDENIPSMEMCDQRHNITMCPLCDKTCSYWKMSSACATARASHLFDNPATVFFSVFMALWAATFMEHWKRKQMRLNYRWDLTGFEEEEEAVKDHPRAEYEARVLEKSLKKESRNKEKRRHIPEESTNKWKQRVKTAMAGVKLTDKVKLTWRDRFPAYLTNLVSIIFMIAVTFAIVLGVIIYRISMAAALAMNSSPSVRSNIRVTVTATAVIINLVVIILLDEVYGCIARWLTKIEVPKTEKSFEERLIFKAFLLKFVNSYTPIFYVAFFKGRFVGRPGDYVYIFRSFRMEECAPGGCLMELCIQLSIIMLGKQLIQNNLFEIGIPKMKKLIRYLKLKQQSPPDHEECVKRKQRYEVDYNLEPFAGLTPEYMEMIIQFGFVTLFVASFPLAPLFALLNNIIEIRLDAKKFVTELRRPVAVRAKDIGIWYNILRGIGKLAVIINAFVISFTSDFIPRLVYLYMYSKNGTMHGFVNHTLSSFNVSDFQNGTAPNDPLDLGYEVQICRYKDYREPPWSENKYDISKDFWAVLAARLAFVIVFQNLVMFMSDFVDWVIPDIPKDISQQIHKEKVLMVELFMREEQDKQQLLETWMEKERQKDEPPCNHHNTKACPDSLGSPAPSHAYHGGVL
Anoctamin-1 (ANO1, Homo sapiens, UniProt Q5XXA6, del476-501/R631K); inhibitor; R605K mutant at -20 mV: 8.56 µM
ANO1 del476-501/F646A; membrane voltage 60 mV: 7.13 µM
Anoctamin-1 (ANO1, Homo sapiens, UniProt Q5XXA6, del476-501/F803A); membrane voltage -60 mV: 14.9 µM
ANO1 del476-501/F646A; membrane voltage -20 mV: 4.54 µM
Anoctamin-1 (ANO1, Homo sapiens, UniProt Q5XXA6, del476-501/R631I); inhibitor; R605I mutant at -100 mV: 27.4 µM
Anoctamin-1 (ANO1, Homo sapiens, UniProt Q5XXA6, del476-501/L548A); membrane voltage 40 mV: 5.69 µM
Anoctamin-1 (ANO1, Homo sapiens, UniProt Q5XXA6, del476-501/F807A); membrane voltage -40 mV: 29.7 µM

Series 2
Target: DNA polymerase theta, ATPase domain (POLQ, Homo sapiens, UniProt O75417)
Chain of UniProt O75417 (whole entry, unmodified, looked up): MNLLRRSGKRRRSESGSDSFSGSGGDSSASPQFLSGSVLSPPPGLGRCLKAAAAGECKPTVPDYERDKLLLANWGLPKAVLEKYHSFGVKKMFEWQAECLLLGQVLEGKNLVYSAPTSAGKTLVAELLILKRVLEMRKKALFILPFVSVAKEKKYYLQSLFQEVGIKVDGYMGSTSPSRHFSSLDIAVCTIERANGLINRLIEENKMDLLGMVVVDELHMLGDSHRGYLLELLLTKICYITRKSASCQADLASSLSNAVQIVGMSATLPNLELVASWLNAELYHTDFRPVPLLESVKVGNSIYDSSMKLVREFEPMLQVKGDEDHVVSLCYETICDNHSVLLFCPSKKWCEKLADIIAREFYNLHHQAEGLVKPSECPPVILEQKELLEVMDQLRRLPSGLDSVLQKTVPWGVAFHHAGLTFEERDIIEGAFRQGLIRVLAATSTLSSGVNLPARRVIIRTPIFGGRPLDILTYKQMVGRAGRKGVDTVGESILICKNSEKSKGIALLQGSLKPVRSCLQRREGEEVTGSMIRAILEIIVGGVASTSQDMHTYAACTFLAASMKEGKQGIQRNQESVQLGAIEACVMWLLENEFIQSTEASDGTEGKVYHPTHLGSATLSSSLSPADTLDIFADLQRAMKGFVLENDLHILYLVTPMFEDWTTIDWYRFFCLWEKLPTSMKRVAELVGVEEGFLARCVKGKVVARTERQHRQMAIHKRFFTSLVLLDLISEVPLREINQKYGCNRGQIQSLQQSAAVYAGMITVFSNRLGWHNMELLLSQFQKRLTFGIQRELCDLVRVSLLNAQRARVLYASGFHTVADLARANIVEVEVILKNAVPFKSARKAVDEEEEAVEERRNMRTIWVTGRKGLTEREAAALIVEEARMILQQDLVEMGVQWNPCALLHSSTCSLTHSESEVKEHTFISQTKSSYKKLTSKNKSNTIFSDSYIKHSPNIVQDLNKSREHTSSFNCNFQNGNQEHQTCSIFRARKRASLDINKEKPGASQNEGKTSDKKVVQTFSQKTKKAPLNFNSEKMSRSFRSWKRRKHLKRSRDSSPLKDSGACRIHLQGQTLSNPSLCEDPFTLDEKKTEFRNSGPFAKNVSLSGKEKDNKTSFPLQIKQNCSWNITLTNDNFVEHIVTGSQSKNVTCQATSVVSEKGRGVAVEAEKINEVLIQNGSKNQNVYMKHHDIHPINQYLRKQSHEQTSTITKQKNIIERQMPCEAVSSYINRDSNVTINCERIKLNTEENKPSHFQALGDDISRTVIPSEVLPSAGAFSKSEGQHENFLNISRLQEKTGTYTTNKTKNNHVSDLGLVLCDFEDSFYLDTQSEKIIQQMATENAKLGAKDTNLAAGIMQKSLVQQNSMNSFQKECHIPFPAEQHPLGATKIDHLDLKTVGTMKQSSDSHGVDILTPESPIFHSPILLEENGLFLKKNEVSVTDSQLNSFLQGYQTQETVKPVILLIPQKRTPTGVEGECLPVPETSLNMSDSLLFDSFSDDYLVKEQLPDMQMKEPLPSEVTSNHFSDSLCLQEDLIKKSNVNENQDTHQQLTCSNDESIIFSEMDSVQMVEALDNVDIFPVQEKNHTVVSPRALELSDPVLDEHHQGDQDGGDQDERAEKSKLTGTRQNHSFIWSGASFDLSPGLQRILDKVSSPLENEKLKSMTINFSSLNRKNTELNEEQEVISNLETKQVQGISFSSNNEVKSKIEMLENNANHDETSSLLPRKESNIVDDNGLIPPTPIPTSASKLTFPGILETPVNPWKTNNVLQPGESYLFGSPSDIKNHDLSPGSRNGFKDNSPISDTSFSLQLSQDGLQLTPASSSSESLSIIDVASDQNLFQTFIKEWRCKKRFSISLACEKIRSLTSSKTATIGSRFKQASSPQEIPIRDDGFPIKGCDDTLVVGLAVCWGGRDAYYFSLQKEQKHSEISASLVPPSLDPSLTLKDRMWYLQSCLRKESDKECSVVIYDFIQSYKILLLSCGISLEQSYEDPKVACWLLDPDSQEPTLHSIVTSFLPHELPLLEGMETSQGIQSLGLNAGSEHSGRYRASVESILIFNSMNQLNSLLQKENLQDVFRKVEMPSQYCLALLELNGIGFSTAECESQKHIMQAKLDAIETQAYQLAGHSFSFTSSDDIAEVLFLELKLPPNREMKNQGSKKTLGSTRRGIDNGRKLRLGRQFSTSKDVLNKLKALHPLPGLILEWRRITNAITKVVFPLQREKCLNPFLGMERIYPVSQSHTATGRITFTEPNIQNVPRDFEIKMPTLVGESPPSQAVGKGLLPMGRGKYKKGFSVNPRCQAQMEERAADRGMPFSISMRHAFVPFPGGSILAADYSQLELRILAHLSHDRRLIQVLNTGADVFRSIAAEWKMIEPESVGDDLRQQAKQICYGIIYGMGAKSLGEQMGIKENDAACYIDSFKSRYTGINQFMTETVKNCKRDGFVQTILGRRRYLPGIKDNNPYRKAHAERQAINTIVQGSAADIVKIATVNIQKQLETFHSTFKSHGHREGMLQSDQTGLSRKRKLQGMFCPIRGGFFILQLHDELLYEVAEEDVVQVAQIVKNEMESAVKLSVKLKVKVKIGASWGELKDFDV
Observed: enzyme activity
Mode: inhibitor
Tested at: 77 µM
Relative to: untreated
Measurement: remaining activity
NC1(C(=O)O)CC1: 84.3%
FC(F)(F)c1ccccc1-n1ccnc1: 95.1%
Cc1cc(/C=C/C#N)cc(C)c1Nc1ccnc(Nc2ccc(C#N)cc2)n1: 102%
Cc1cc(C)c2c(c1)[C@@H](N(Cc1cc(C(F)(F)F)cc(C(F)(F)F)c1)c1nnn(C)n1)CCCN2C[C@H]1CC[C@H](C(=O)O)CC1: 98.7%
CCn1c(=O)[nH]c2cc(Cl)c(Cl)cc21: 105%
CN1C(=O)C(c2c[nH]c3ccccc23)=C(c2c[nH]c3ccccc23)C1=O: 95.8%
COc1cccc(-c2cc(F)ccc2C2Cc3nc(N)nc(C)c3C(=O)N2)n1 (stereo not drawn): 95.8%

Series 3
Target: Protein kinase C beta type, isoform beta-II (PRKCB, Homo sapiens, UniProt P05771)
Chain of UniProt P05771 (whole entry, looked up): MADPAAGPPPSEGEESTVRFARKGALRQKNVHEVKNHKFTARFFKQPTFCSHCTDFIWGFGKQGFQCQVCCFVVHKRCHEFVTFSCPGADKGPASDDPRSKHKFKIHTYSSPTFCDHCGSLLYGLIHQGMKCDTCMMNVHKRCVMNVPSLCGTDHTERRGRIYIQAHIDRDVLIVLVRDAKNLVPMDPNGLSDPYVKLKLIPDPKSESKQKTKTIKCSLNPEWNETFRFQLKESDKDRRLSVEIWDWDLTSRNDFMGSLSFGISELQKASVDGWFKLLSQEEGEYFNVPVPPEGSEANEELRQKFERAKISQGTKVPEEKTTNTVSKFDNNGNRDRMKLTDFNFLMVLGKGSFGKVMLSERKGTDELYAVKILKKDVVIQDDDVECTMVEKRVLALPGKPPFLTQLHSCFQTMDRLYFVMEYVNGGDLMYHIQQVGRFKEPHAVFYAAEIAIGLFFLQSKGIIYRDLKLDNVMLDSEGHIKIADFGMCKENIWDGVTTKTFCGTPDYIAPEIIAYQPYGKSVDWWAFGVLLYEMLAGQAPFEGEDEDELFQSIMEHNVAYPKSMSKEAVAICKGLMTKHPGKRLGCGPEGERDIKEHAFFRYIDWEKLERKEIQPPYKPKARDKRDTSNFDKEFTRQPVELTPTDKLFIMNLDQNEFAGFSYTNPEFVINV
Observed: enzyme activity
Mode: inhibitor
Tested at: 0.5 µM
Relative to: control
Measurement: remaining activity
Oc1cccc(-c2nc(N3CCOCC3)c3oc4ncccc4c3n2)c1: 102%
COc1ccc2c(c1)c(C1=C(c3c[nH]c4ccccc34)C(=O)NC1=O)cn2CCCN(C)C: 14.2%
CN(C)S(=O)(=O)c1ccc2c(c1)/C(=C/c1cc3c([nH]1)CCCC3)C(=O)N2: 92%
CN1CCN(c2ccc3nc(-c4c(N)c5c(F)cccc5[nH]c4=O)[nH]c3c2)CC1: 92%
O=C1Nc2ccccc2/C1=C\c1c(Cl)[nH]c2ccccc12: 92.6%
c1ccc(-c2n[nH]c3c2oc2ccccc23)cc1: 113%
CCCCc1c(-c2ccc(OC)cc2)[nH]c2nccnc12: 106%
O=C1NC(=O)c2c1c1c3ccccc3[nH]c1n1cncc21: 94.7%
c1ccc2c(-c3ccncc3)c[nH]c2c1: 89.5%
O=C1NC(=O)c2c1c1c3ccccc3[nH]c1c1[nH]c3cc(Br)ccc3c21: 72.8%

Series 4
Compound: CCS(=O)(=O)c1cc2cc(C[C@](O)(CC(C)(C)c3ccc(F)cc3C(N)=O)C(F)(F)F)[nH]c2cn1
Observed: cell-free assay
Technique: competition with immobilised ligand
Tested at: 1 µM
Measurement: remaining binding
Serine/threonine-protein kinase DCLK3 (DCLK3, Homo sapiens, UniProt Q9C098): 100%
Phosphatidylinositol 4-phosphate 3-kinase C2 domain-containing subunit beta (PIK3C2B, Homo sapiens, UniProt O00750): 89%
Phosphatidylinositol 4,5-bisphosphate 3-kinase catalytic subunit beta isoform (PIK3CB, Homo sapiens, UniProt P42338): 98%
Receptor tyrosine-protein kinase erbB-3 (ERBB3, Homo sapiens, UniProt P21860): 100%
Dual specificity testis-specific protein kinase 1 (TESK1, Homo sapiens, UniProt Q15569): 100%
Mast/stem cell growth factor receptor Kit (KIT, Homo sapiens, UniProt P10721, D816V): 100%
5'-AMP-activated protein kinase catalytic subunit alpha-2 (PRKAA2, Homo sapiens, UniProt P54646): 97%
Serine/threonine-protein kinase WNK3 (WNK3, Homo sapiens, UniProt Q9BYP7): 100%
Receptor-interacting serine/threonine-protein kinase 1 (RIPK1, Homo sapiens, UniProt Q13546): 100%
SRSF protein kinase 3 (SRPK3, Homo sapiens, UniProt Q9UPE1): 100%
Phosphatidylinositol 3-kinase catalytic subunit type 3 (PIK3C3, Homo sapiens, UniProt Q8NEB9): 100%
Cyclin-dependent kinase 11B (CDK11B, Homo sapiens, UniProt P21127): 100%
Serine/threonine-protein kinase N1 (PKN1, Homo sapiens, UniProt Q16512): 100%
Myosin light chain kinase, smooth muscle (MYLK, Homo sapiens, UniProt Q15746): 96%
Epidermal growth factor receptor (EGFR, Homo sapiens, UniProt P00533, del747-752/P753S): 83%
Serine/threonine-protein kinase B-raf (BRAF, Homo sapiens, UniProt P15056): 100%
BDNF/NT-3 growth factors receptor (NTRK2, Homo sapiens, UniProt Q16620): 100%
Ephrin type-A receptor 7 (EPHA7, Homo sapiens, UniProt Q15375): 86%
Serine/threonine-protein kinase Sgk3 (SGK3, Homo sapiens, UniProt Q96BR1): 89%
Phosphatidylinositol 4,5-bisphosphate 3-kinase catalytic subunit delta isoform (PIK3CD, Homo sapiens, UniProt O00329): 89%
eIF-2-alpha kinase GCN2, C-terminal kinase domain (EIF2AK4, Homo sapiens, UniProt Q9P2K8, S808G): 89%

Excerpt of the above (series 4):
Dual specificity testis-specific protein kinase 1 (TESK1, Homo sapiens, UniProt Q15569): 100%
5'-AMP-activated protein kinase catalytic subunit alpha-2 (PRKAA2, Homo sapiens, UniProt P54646): 97%
Phosphatidylinositol 4,5-bisphosphate 3-kinase catalytic subunit beta isoform (PIK3CB, Homo sapiens, UniProt P42338): 98%
Phosphatidylinositol 3-kinase catalytic subunit type 3 (PIK3C3, Homo sapiens, UniProt Q8NEB9): 100%
